# Experimental data pooled from the literature.
# Compare with care: the assays were run in different laboratories. ± marks the error that the study gave.
Compound,test,test system,setting,scale,quantity,result
COc1cc(-c2nc3ccccc3s2)cc(CN2CCN(CC(=O)OC(C)C)CCN(CC(=O)OC(C)C)CC2)c1O,UV-Vis pH titration,,"25 °C, ionic strength 0.1 M NaCl",,pKa3,8.27
CCn1cc(/C=C/c2sc3ccccc3[n+]2CC)c2ccccc21,,methanol,,,Stokes shift,65 nm
O=C(CCc1ccc(CNC(C(=O)OC2CCCC2)C2CCCCC2)cn1)NO (centres unmarked),,"human, plasma","oral, 5 mg single dose, geometric mean",,AUC(0-t),13.9 ng·h/mL
N[C@@H]1CCCC[C@H]1N.O=C1[O][Pt]2([O]C1=O)[O]C(=O)C(=O)[O]2,,water,"24 h, 37 °C",,decomposition,10%
C[N+](C)(C)CC(CC(=O)[O-])OC(=O)CCC(=O)Nc1ccn([C@@H]2O[C@H](CO)[C@@H](O)C2(F)F)c(=O)n1 (some centres unmarked),,extracted rat plasma,"15.00 ng/mL, 8 h, 10 °C, autosampler stability, low QC",,measured concentration,16.8 ± 0.3 ng/mL
CC[C@H](C)[C@@H]1NC(=O)[C@H](Cc2ccccc2)NC(=O)[C@@H](NC(=O)[C@H](CCCNC(=N)N)NC(=O)[C@H](Cc2ccccc2)NC(=O)[C@H](Cc2ccccc2)NC(=O)[C@H](CCCCN)NC(=O)[C@H](CO)NC(=O)[C@H](CC(C)C)NC(=O)[C@H](CCCNC(=N)N)NC(=O)[C@H](CCSC)NC(=O)[C@H](C)N)CNC(=O)NCCCC[C@@H](C(=O)N[C@@H](CCCNC(=N)N)C(=O)N[C@@H](CCCCN)C(=O)N[C@@H](CCCCN)C(=O)O)NC(=O)[C@H](CC(C)C)NC1=O,circular dichroism,2.5 mM DPC,,,melting temperature,65.9 °C
CCOC(=O)CCC(=O)Oc1ccc(/C=C/C(=O)/C=C(O)/C=C/c2ccc(OC(=O)CCC(=O)OCC)c(OC)c2)cc1OC,,human plasma,1.5 µM,relative to: human plasma over buffer pH 7.4,hydrolysis rate ratio,100
OCc1cn(Cc2ccc(-c3noc(-c4ccc(OCC[18F])c(C(F)(F)F)c4)n3)cc2)nn1,,"Lewis rat, female, liver","intravenous, 1 h",,tissue uptake,4.21 ± 0.21 %ID/g
CCCC[C@H](NC(C)=O)C(=O)N[C@H]1CC(=O)NCCCC[C@@H](C(=O)N[C@@H](C(=O)N2CCC[C@@H]2C(N)=O)C(C)C)NC(=O)[C@H](Cc2c[nH]c3ccccc23)NC(=O)[C@H](CCCN=C(N)N)NC(=O)[C@@H](Cc2ccc3ccccc3c2)NC(=O)[C@@H]2CCCN2C1=O,,"Beagle dog, both sexes, plasma","subcutaneous, once daily, 0.75 mg/kg, day 28",,Cmax,2100 ± 500 ng/mL
CCCCCCCC(=O)OC[C@H](NC(=O)[C@H](CO)NC(=O)CN)C(=O)N[C@@H](Cc1ccccc1)C(=O)N[C@@H](CC(C)C)C(=O)N[C@@H](CO)C(=O)N1CCC[C@H]1C(=O)N[C@@H](CCC(=O)O)C(=O)N[C@@H](Cc1cnc[nH]1)C(=O)N[C@@H](CCC(N)=O)C(=O)N[C@@H](CCCNC(=N)N)C(=O)N[C@H](C(=O)N[C@@H](CCC(N)=O)C(=O)N[C@@H](CCC(N)=O)C(=O)N[C@@H](CCCNC(=N)N)C(=O)N[C@@H](CCCCN)C(=O)N[C@@H](CCC(=O)O)C(=O)N[C@@H](CO)C(=O)N[C@@H](CCCCN)C(=O)N[C@@H](CCCCN)C(=O)N1CCC[C@H]1C(=O)N1CCC[C@H]1C(=O)N[C@@H](C)C(=O)N[C@@H](CCCCN)C(=O)N[C@@H](CC(C)C)C(=O)N[C@@H](CCC(N)=O)C(=O)N1CCC[C@H]1C(=O)N[C@@H](CCCNC(=N)N)C(=O)O)C(C)C,,chronic HFrEF patients,"intravenous infusion, 0.1 µg/kg/min, 60 min of infusion",,heart rate,68.5 ± 11.2 bpm
CC(C)C[C@@H](N)C(=O)N[C@H](CC(=O)O)C(=O)N[C@@H](C(=O)N[C@H](Cc1ccccc1)C(=O)N[C@H](CC(C)C)C(=O)N[C@H](Cc1ccc(O)cc1)C(=O)N[C@H](CO)C(=O)N[C@H](CCC(=O)O)C(=O)O)C(C)C,,4T1 and MC-38 tumour mice,dose not given,,haemoglobin level,no effect
C[C@H]1CO[C@@H]2Cn3cc(C(=O)NCc4ccc(F)cc4F)c(=O)c(O[C@@H]4O[C@H](C(=O)O)[C@@H](O)[C@H](O)[C@H]4O)c3C(=O)N12,,humans UGT1A1 wild type,"oral, 30 mg, 1 weeks after last dose",,participants with quantifiable plasma drug,54.3%
O=c1nc(NO)ccn1[C@@H]1O[C@H](CO)[C@@H](O)[C@H]1O,,"male Wistar rats, plasma","oral, 30 mg/kg",relative to: CFA-arthritic over normal rats,CL/F ratio,0.54 fold
O=C(O)[C@@H]1C[C@@H](O)CN1C(=O)[C@@H]1CCCN1,potentiometric titration,,"25 °C, MA2 complex, with: Fe(III)",,log beta,23.8
CC(C)[C@H](NC(=O)CNC(=O)[C@H](CCC(N)=O)NC(=O)[C@H](C)N)C(=O)O,,"human, both sexes, plasma","intravenous infusion, 45 mg/kg/h, 2 h infusion, geometric mean",,AUC(0-t),1510 ng·h/mL
[11CH3]c1ccc2nc(C3CCC3)n(-c3ccc4[nH]ncc4c3)c2n1,,"human male, ovaries",,,absorbed radiation dose,3.4 µSv/MBq
Cc1c(C)c(C)[c-](C)c1C.[C-]#[O+].[C-]#[O+].[C-]#[O+].[Cl-].[Cl-].[Cl-].[Ir+3].[Re+].c1cnc(-c2ncccn2)nc1,cyclic voltammetry,"0.1 M Na2SO4, gold electrode",scan rate 50 mV/s,,redox potential,-0.512 V vs Ag/AgCl
CC(C)c1cnc(-c2cc(Cl)ccc2F)cc1Nc1ccncc1C(=O)NC(CO)CO,,"patients, phase I monotherapy","oral, dose not given, grade 1",,patients with anaemia,0%
COc1cc(OC)cc(C2=C3C(C)=C(I)C(C)=[N+]3[B-](F)(F)n3c(/C=C/c4c[nH]c5ccccc45)c(I)c(C)c32)c1,,DMSO,,,Stokes shift,930 cm⁻¹
CCCC[C@H](NC(=O)CNC(=O)CNC(=O)CN1CCN(CC(=O)O)CCN(CC(=O)O)CC1)C(=O)N[C@H]1CC(=O)NCCCC[C@@H](C(N)=O)NC(=O)[C@H](Cc2c[nH]c3ccccc23)NC(=O)[C@H](CCCNC(=N)N)NC(=O)[C@@H](Cc2ccccc2)NC(=O)[C@H](Cc2c[nH]cn2)NC1=O [copper-64 labelled],,"female C57 mouse, B16/F1 melanoma","intravenous, 0.037 MBq, 24 h",relative to: tumour over lung,uptake ratio,11.5
"CNC(=O)N[C@]1(C)CCC[C@@]2(C)C3CC[C@@]4(C)C[C@]3(CCC21)CC4=O (single isomer, unassigned)",,processed rat plasma,"1.5 ng/mL, 24 h, 4 °C, autosampler stability",,measured concentration,1.46 ± 0.04 ng/mL
COC(=O)c1ccc(-c2cn(Cc3cc(Cl)ccc3O[11CH3])nn2)cc1,"PET, Logan plot, t*=40 min","rhesus monkey, brain Midbrain",dose not given,,distribution volume,0.625 mL/cm³
CC1=N[C@H](C)Cc2c(-c3ccc(C)cc3)ccc(O)c21,metabolic stability,"male rat, liver microsomes","1 µM, 30 min",,compound remaining,< 7%
COCCOCCOCCOCCOCCOCCOCCOCCC(=O)NCCCc1cc2cc3nc(cc4[nH]c(cc5nc(c(OC)c1[nH]2)C(=O)C5(C)C)cc4CCc1ccc(C(=O)O)cc1)CC3(C)C,,water with 5% DMF,room temperature,,Qy absorption FWHM,25 nm
CCCC(CCC)NC(=O)c1ccc(O)c(OS(=O)(=O)O)c1,LC-MS,"Sprague-Dawley rats, pooled sexes, plasma","oral, 200 mg/kg of parent drug, 1 h",relative to: total peak area,metabolite peak area,0.78%
COc1cc(N(C)CCN(C)C)c(NC(=O)CCSCC(N)C(=O)O)cc1Nc1nccc(-c2cn(C3CC3)c3ccccc23)n1 (centres unmarked),radio-HPLC,"human, feces","dose not given, 0 to 48 h, sample holds 45.32% dose",relative to: sample radioactivity,share of radioactivity,1.64%
COC(=O)C(c1ccccc1Cl)N1CCC(SCC(=O)c2cccc(OC)c2)C(=CC(=O)O)C1 (centres unmarked),LC-MS/MS,processed plasma extract,"50 ng/mL, 8 h, room temperature",,measured concentration,49.6 ± 7.7 ng/mL
Cc1cccc(Cn2c(OC3CCN(c4ncc(C)s4)CC3)nc3c2c(=O)n(C)c(=O)n3C)c1,metabolic stability,"rat, liver microsomes",,,half-life,2 min
CCCCCC(O)C=CC1OC2OC(C1CC=CCCCC(=O)O)C2(F)F (centres unmarked),,50 mM HCl buffer,"pH 1.80, 23 °C",,hydrolysis rate constant,5.46e-05 s⁻¹
NC12CNCCNCC(NCc3ccc(CNC(=O)CCCC(=O)NCc4ccc(-c5nncnn5)cc4)cc3)(CNCCNC1)CNCCNC2.[64Cu+2],OLINDA dosimetry,red marrow,"pretargeting, 24-h interval",,mean absorbed dose,0.0302 rad/mCi
Cn1c(=O)oc2ccc(-c3ccc(CC(C#N)NC(=O)C4CNCCCO4)c(F)c3)cc21 (centres unmarked),measured: alanine aminotransferase increased,human,"80 mg single dose, fasted",,subjects with TRAE,0%
Cc1[nH]c(/C=C2\C(=O)Nc3ccc(F)cc32)c(C)c1NC(=O)CCN1CCN(C)CC1,,dog plasma,"1.00 ng/mL nominal, three freeze-thaw cycles at -20 °C",,measured concentration,0.95 ng/mL
CN(C)c1cc(CN2CCCCC2)c(O)c2c1C[C@H]1C[C@H]3[C@H](N(C)C)C(O)=C(C(N)=O)C(=O)[C@@]3(O)C(O)=C1C2=O,,"cynomolgus monkey, plasma","intravenous, 5 mg/kg",,AUC,19500 ng·h/mL
CC(=O)[CH](C(C)=O)[Pt-2]1([S+](C)C)[O]C(C)=CC(C)=[O+]1 (centres unmarked),,"rat, blood","intravenous, 10 mg/kg, single dose",,ALT,29.7 ± 8.3 U/L
O=C([O-])CN1CCN(CC(=O)[O-])CCN(CC(=O)NCC2CCC(C(=O)NC(Cc3ccc4ccccc4c3)C(=O)NCCCCC(NC(=O)NC(CCC(=O)O)C(=O)O)C(=O)O)CC2)CCN(CC(=O)[O-])CC1.[44Sc+3] (centres unmarked),PET/CT dosimetry,"human patients, salivary glands",mean of 4 patients,,residence time,0.016 h

# Some of these lines once more:
Compound,test,test system,setting,scale,quantity,result
CCOC(=O)CCC(=O)Oc1ccc(/C=C/C(=O)/C=C(O)/C=C/c2ccc(OC(=O)CCC(=O)OCC)c(OC)c2)cc1OC,,human plasma,1.5 µM,relative to: human plasma over buffer pH 7.4,hydrolysis rate ratio,100
N[C@@H]1CCCC[C@H]1N.O=C1[O][Pt]2([O]C1=O)[O]C(=O)C(=O)[O]2,,water,"24 h, 37 °C",,decomposition,10%
CCCCCCCC(=O)OC[C@H](NC(=O)[C@H](CO)NC(=O)CN)C(=O)N[C@@H](Cc1ccccc1)C(=O)N[C@@H](CC(C)C)C(=O)N[C@@H](CO)C(=O)N1CCC[C@H]1C(=O)N[C@@H](CCC(=O)O)C(=O)N[C@@H](Cc1cnc[nH]1)C(=O)N[C@@H](CCC(N)=O)C(=O)N[C@@H](CCCNC(=N)N)C(=O)N[C@H](C(=O)N[C@@H](CCC(N)=O)C(=O)N[C@@H](CCC(N)=O)C(=O)N[C@@H](CCCNC(=N)N)C(=O)N[C@@H](CCCCN)C(=O)N[C@@H](CCC(=O)O)C(=O)N[C@@H](CO)C(=O)N[C@@H](CCCCN)C(=O)N[C@@H](CCCCN)C(=O)N1CCC[C@H]1C(=O)N1CCC[C@H]1C(=O)N[C@@H](C)C(=O)N[C@@H](CCCCN)C(=O)N[C@@H](CC(C)C)C(=O)N[C@@H](CCC(N)=O)C(=O)N1CCC[C@H]1C(=O)N[C@@H](CCCNC(=N)N)C(=O)O)C(C)C,,chronic HFrEF patients,"intravenous infusion, 0.1 µg/kg/min, 60 min of infusion",,heart rate,68.5 ± 11.2 bpm
CC1=N[C@H](C)Cc2c(-c3ccc(C)cc3)ccc(O)c21,metabolic stability,"male rat, liver microsomes","1 µM, 30 min",,compound remaining,< 7%
CN(C)c1cc(CN2CCCCC2)c(O)c2c1C[C@H]1C[C@H]3[C@H](N(C)C)C(O)=C(C(N)=O)C(=O)[C@@]3(O)C(O)=C1C2=O,,"cynomolgus monkey, plasma","intravenous, 5 mg/kg",,AUC,19500 ng·h/mL
